Literature values, collected from citations in different studies.
Protocols differ between the studies behind these lines.

Nc1ccc(S(=O)(=O)c2ccc(N)cc2)cc1 — Cmax (plasma; concentration not given): 5600 nM
CCCS(=O)(=O)Nc1ccc(F)c(C(=O)c2c[nH]c3ncc(-c4ccc(Cl)cc4)cc23)c1F — Cmax (patients, plasma; dose not given, total concentration): 126000 nM
Cc1cn(-c2cc(NC(=O)c3ccc(C)c(Nc4nccc(-c5cccnc5)n4)c3)cc(C(F)(F)F)c2)cn1 — Cmax (plasma; concentration not given): 3600 nM
C[C@@H](Oc1cc(-c2cnn(C3CCNCC3)c2)cnc1N)c1c(Cl)ccc(F)c1Cl — Cmax (patients, plasma; dose not given, total concentration): 1240 nM
Sc1ncnc2nc[nH]c12 — Cmax (plasma; concentration not given): 1000 nM
COc1cccc2c1C(=O)c1c(O)c3c(c(O)c1C2=O)C[C@@](O)(C(=O)CO)C[C@@H]3O[C@H]1C[C@H](N)[C@H](O)[C@H](C)O1 — Cmax (patients, plasma; dose not given, total concentration): 2930 nM
O=C1c2cccc3c2[C@H](CCC3)CN1[C@@H]1CN2CCC1CC2 — Cmax (healthy volunteers; oral, 0.75 mg single dose, mean): 1.64 ng/mL
Nc1ccn([C@@H]2CS[C@H](CO)O2)c(=O)n1 — Cmax (healthy, mostly White or Black; 300 mg, single dose, fasted, together with: abacavir 600 mg, dolutegravir 50 mg): 2200 ng/mL
COc1cc(Nc2c(C#N)cnc3cc(OCCCN4CCN(C)CC4)c(OC)cc23)c(Cl)cc1Cl — Cmax (patients, plasma; dose not given, total concentration): 510 nM
COc1cc2ncnc(Nc3ccc(F)c(Cl)c3)c2cc1OCCCN1CCOCC1 — Cmax (plasma; concentration not given): 720 nM
Cc1ccccc1-c1cc(N2CCN(C)CC2)ncc1N(C)C(=O)C(C)(C)c1cc(C(F)(F)F)cc(C(F)(F)F)c1 — Cmax (healthy volunteers; oral, 450 mg single dose, mean, together with: palonosetron 0.75 mg): 660 ng/mL
CC1=N[C@]2(C(=O)CO)[C@@H](C[C@H]3[C@@H]4C[C@@H](O)C5=CC(=O)C=C[C@]5(C)[C@H]4[C@@H](O)C[C@@]32C)O1 — Cmax (patients with Duchenne muscular dystrophy, plasma; 0.9 mg/kg/day of deflazacort, steady state, mean): 340 nM
C[C@@H]1CCO[C@H]2Cn3cc(C(=O)NCc4ccc(F)cc4F)c(=O)c(O)c3C(=O)N12 — Cmax (healthy, mostly White or Black; 50 mg, single dose, fasted, together with: abacavir 600 mg, lamivudine 300 mg): 2530 ng/mL
O=C1c2c(O)ccc(O)c2C(=O)c2c(NCCNCCO)ccc(NCCNCCO)c21 — Cmax (plasma; concentration not given): 1900 nM
Nc1nc(NC2CC2)c2ncn([C@H]3C=C[C@@H](CO)C3)c2n1 — Cmax (healthy, mostly White or Black; 600 mg, single dose, fasted, together with: dolutegravir 50 mg, lamivudine 300 mg): 4130 ng/mL
CC(=O)Nc1cccc(-n2c(=O)n(C3CC3)c(=O)c3c(Nc4ccc(I)cc4F)n(C)c(=O)c(C)c32)c1 — Cmax (patients, plasma; dose not given, total concentration): 20 nM

Some of these lines once more:
O=C1c2c(O)ccc(O)c2C(=O)c2c(NCCNCCO)ccc(NCCNCCO)c21 — Cmax (plasma; concentration not given): 1900 nM
CCCS(=O)(=O)Nc1ccc(F)c(C(=O)c2c[nH]c3ncc(-c4ccc(Cl)cc4)cc23)c1F — Cmax (patients, plasma; dose not given, total concentration): 126000 nM
